Experimental data collected from several papers.
Each numbered part is a random draw from the data of one study; scales do not carry over between parts.
Chain of UniProt Q6PHR2 (whole entry, looked up): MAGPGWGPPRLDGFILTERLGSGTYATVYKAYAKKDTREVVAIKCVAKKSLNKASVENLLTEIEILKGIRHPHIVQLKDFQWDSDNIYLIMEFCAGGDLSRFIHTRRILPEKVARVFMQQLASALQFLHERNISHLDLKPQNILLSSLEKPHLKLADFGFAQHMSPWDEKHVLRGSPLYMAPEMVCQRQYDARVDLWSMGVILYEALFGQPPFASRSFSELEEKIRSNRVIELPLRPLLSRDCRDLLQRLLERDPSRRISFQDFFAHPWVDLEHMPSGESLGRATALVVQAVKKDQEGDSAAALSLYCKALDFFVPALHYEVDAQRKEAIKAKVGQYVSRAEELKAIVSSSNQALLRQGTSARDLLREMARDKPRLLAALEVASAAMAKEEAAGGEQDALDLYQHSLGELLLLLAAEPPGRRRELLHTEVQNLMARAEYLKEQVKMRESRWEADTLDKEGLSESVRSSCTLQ
Chain of UniProt Q9H2K8 (whole entry, looked up): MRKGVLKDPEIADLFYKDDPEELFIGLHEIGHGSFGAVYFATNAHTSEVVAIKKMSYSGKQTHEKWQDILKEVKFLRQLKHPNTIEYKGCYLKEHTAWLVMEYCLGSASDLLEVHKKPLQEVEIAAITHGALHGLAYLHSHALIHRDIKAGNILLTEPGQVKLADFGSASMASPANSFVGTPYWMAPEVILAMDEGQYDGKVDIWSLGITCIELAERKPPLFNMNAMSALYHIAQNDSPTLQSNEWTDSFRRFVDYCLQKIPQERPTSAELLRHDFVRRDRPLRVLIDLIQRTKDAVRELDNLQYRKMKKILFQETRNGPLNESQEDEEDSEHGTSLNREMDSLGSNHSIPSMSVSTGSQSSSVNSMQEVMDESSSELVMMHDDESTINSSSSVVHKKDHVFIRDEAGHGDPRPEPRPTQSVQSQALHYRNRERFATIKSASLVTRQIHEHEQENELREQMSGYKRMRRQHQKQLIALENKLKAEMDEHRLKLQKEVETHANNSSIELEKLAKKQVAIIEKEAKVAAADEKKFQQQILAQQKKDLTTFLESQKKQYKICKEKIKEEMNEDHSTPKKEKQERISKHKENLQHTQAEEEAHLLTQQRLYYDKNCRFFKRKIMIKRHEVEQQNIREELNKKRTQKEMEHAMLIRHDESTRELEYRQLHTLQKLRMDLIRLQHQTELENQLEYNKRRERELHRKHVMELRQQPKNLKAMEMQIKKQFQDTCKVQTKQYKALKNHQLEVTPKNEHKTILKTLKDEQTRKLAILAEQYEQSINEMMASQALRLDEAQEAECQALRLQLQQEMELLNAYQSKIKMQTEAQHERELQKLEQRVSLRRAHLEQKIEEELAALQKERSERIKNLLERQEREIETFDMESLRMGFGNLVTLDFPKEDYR
Chain of UniProt P11362 (whole entry, looked up): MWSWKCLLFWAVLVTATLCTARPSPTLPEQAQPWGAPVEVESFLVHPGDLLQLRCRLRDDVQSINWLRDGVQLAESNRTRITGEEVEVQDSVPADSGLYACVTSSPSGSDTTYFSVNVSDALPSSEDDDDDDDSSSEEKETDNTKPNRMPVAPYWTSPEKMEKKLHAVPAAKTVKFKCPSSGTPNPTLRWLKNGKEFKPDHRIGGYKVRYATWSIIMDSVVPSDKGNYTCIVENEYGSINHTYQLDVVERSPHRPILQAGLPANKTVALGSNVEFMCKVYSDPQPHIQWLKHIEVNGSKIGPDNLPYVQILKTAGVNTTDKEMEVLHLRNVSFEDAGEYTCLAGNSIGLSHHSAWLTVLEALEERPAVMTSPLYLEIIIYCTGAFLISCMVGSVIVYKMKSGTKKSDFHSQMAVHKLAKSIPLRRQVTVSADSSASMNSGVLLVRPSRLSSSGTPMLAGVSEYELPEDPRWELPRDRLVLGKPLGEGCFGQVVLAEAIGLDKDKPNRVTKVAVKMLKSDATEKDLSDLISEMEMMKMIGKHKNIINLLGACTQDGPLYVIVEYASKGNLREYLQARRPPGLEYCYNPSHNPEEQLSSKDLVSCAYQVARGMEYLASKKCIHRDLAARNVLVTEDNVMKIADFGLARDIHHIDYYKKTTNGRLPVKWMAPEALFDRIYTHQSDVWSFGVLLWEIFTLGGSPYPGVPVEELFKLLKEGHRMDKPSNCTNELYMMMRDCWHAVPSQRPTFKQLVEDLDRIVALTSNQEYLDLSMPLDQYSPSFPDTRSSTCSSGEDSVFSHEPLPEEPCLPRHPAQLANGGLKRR
Chain of UniProt Q9Y243 (whole entry, looked up): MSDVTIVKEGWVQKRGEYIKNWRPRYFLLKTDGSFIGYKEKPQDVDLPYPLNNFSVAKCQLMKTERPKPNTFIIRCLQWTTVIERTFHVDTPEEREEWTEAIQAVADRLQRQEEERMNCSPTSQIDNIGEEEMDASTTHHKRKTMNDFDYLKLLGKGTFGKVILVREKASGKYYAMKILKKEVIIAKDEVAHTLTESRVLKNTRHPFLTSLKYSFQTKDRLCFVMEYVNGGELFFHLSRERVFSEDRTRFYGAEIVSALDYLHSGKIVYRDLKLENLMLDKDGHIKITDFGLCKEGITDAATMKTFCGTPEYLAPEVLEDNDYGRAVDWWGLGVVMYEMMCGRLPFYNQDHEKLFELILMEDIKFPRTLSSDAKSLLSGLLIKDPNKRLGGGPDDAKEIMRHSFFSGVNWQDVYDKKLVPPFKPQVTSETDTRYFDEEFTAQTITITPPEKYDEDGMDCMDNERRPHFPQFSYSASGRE
Chain of UniProt P80192 (whole entry, looked up): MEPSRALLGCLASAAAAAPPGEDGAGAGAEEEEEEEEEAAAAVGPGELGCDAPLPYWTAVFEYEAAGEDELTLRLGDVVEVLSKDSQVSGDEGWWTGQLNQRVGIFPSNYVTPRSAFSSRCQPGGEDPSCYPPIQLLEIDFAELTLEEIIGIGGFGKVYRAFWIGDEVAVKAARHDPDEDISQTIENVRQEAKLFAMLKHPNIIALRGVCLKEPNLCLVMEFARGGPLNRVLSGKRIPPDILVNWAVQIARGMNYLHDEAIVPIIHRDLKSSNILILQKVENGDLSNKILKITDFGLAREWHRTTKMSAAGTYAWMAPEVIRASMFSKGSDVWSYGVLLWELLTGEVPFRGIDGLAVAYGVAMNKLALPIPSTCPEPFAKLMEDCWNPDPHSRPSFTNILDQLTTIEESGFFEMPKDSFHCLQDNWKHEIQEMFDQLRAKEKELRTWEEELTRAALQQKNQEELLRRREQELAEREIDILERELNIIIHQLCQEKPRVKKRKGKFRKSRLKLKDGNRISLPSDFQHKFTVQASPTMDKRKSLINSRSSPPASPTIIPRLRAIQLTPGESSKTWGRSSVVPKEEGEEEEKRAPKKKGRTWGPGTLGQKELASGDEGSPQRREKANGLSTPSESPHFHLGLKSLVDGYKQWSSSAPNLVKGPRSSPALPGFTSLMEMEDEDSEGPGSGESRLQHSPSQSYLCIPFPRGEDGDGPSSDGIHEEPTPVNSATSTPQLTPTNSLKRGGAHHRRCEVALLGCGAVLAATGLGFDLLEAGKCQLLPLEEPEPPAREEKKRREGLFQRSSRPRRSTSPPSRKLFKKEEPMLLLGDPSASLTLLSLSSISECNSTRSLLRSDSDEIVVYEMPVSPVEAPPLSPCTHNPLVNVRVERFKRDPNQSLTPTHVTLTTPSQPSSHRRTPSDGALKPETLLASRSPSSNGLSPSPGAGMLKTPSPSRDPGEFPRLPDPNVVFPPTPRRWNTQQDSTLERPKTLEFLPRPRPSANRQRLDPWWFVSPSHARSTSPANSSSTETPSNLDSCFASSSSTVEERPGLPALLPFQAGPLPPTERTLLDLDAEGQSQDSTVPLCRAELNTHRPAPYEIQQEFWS
Chain of UniProt P23443 (whole entry, looked up): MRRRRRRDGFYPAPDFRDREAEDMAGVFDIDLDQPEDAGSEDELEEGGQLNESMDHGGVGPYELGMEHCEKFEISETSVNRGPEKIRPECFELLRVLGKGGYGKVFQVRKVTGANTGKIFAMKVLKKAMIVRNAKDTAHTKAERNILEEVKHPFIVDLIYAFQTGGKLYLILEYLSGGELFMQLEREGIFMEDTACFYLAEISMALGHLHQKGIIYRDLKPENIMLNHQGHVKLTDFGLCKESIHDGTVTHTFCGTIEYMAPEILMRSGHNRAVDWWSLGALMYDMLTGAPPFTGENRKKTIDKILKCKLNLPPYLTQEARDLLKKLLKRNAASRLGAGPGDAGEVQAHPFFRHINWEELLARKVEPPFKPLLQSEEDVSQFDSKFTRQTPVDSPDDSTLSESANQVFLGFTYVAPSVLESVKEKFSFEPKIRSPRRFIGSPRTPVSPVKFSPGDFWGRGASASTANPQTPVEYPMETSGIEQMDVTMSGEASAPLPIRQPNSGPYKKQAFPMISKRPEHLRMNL

Set 1 — technique: RNA Bind-n-Seq; form: RNA; matrix: in vitro; concentration: 1 µM; setting: whole 134-nt RNA, ends assumed; added: 150 mM KCl; reference: input library; direction: higher = stronger binding
Target: Ras GTPase-activating protein-binding protein 1, RRM domain (G3BP1, Homo sapiens, UniProt Q13283)
Chain of UniProt Q13283 (whole entry, looked up): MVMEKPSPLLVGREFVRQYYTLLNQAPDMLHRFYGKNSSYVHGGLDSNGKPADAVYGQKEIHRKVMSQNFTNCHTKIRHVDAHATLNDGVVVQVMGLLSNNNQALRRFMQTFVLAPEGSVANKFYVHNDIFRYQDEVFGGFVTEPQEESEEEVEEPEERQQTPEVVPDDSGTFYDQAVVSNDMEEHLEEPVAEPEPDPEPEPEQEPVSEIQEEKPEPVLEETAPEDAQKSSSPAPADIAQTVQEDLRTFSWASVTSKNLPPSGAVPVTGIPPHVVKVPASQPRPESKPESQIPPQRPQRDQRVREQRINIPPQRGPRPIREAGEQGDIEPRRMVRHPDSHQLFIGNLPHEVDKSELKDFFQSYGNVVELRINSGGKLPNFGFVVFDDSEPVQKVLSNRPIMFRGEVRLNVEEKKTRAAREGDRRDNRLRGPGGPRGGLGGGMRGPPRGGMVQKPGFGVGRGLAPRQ
Constant ends, left off below: GGGAGUUCUACAGUCCGACGAUC … UGGAAUUCUCGGGUGUCAAGG
| Sequence | log2 enrichment |
| --- | --- |
| CACAGACAUCACGCACCCACACAGACACAGAGGGAAGGGGUUGGGAUGGGGACAGGGUGCACAGCAGGGCGGGGUAGGACCCCAGCCCCU | -0.152 |
| CACAGACAACACGCACCCACACAGACACCGAGGGAAGGGGUUGGGAUGGGGACAGGGUGCACAGCAGGGCGGGGUAGGACCCCAGCCCCU | 0.0779 |
| UGGAGCUGAAGAGCCAAGAGGCUCCGAGUCUGCAGCAGCAGCCAGACCAGUACCUGGAGCCCCAGUCCCACAAGGAGCUUGGAUGUGCGG | -0.371 |
| UAACUUUAGAGGAGGAUCUGAUGGAUAUGGCAGUGGACGUGGAUUUGGGGAUGGCUAUAUUGGGUAUGGAGGAGGACCUGGAGGUGGCAA | -0.334 |
| CACAGACAACAAGCACCCACACAGACACAGAGGGAAGGGGUUGGGAUGGGGACAGGGUGCACAGCAGGGCGGGGUAGGACCCCAGCCCCU | 0.141 |
| AGUCCUGUGCUACACAUCGUAUGUACCGAAUCGGGGAAAAGGAAAAGGGAAAAGGGGAAAGUAUUAUGUUACGCCGUUCGGAUCUGCACU | -0.176 |
| CACAGACAACACGCACCCACACAGACACAGAGGGAAGGGGUUGGGAAAAGGACAGGGUGCACAGCAGGGCGGGGUAGGACCCCAGCCCCU | -0.0348 |
| UGGCCCUGGUGGCAUGCGGGGAGGAAGAGGUGGCCUCAUGGAUCGUGGUGGUCCCGGUGGAAUGUUCAGCGGUGGCCGUGGUGGAGACAG | 1.39 |

Set 2 — observed: enzyme activity; action: inhibitor; concentration: 0.5 µM; reference: control
Target: Serine/threonine-protein kinase Nek2 (NEK2, Homo sapiens, UniProt P51955)
Residues (P51955 1-445): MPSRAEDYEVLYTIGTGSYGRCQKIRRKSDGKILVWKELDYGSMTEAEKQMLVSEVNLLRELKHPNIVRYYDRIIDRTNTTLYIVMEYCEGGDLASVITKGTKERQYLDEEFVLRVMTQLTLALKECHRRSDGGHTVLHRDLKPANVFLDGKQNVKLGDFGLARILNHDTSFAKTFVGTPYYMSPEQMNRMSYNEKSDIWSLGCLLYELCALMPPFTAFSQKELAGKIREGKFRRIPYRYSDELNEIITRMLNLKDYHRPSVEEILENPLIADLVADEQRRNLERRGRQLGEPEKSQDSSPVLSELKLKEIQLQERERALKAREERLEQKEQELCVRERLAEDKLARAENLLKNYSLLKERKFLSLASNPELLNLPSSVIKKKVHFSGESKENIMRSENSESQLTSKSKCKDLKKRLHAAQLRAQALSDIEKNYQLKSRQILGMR
| SMILES | remaining activity |
| --- | --- |
| O=C1NC(=O)C(c2cn(CCCn3ccnc3)c3ccccc23)=C1Nc1ccccc1 | 106% |
| C#Cc1cccc(Nc2ncnc3cc(OCCOC)c(OCCOC)cc23)c1 | 100% |
| COc1ccc(C(=O)Nc2sc3c(c2C(N)=O)CCCC3)cc1OC | 95.4% |
| O=S(=O)(c1cccc2cnccc12)N1CCCNCC1 | 92.3% |
| Nc1ncnc2n[nH]c(Nc3ccc(F)cc3)c12 | 89.3% |
| OCC(O)CCON=C1C(c2c(O)[nH]c3ccccc23)=Nc2ccccc21 (centres unmarked) | 114% |
| Nc1ccc2ncnc(NCCc3ccc(Oc4ccccc4)cc3)c2c1 | 90% |
| Cc1ccc(Nc2nccc(N(C)c3ccc4c(C)n(C)nc4c3)n2)cc1S(N)(=O)=O | 110% |
| Cn1c2ccccc2c2c3c(c4c5ccccc5n(CCC#N)c4c21)CNC3=O | 89.9% |

Set 3 — technique: RNA Bind-n-Seq; form: RNA; matrix: in vitro; concentration: 20 nM; setting: 6-mer, flanks averaged, single round; added: 150 mM KCl; reference: input library; direction: higher = stronger binding
Target: TAR DNA-binding protein 43, full length, His tag (TARDBP, Homo sapiens, UniProt Q13148, residues 1-414)
| Sequence | 6-mer enrichment (R) |
| --- | --- |
| UCAUCU | 0.524 |
| AAAUCA | 0.605 |
| ACCUCA | 0.594 |
| GGAUCU | 0.841 |
| ACACUU | 0.604 |
| AAGCAC | 0.648 |
| UGAACU | 0.642 |
| AUACAC | 0.622 |

Set 4 — observed: cell-free assay; technique: competition with immobilised ligand; concentration: 1 µM
SMILES: O=C(NCc1ncc(C(F)(F)F)cc1Cl)c1ccc2c(c1)C1(CCS(=O)(=O)CC1)[C@H](C1CC1)N2S(=O)(=O)c1ccc(F)cc1
| target | remaining binding |
| --- | --- |
| Calcium/calmodulin-dependent protein kinase type II subunit beta (CAMK2B, Homo sapiens, UniProt Q13554) | 98% |
| Serine/threonine-protein kinase PLK4 (PLK4, Homo sapiens, UniProt O00444) | 92% |
| Serine/threonine-protein kinase ULK3 (ULK3, Homo sapiens, UniProt Q6PHR2) | 85% |
| Serine/threonine-protein kinase TAO3 (TAOK3, Homo sapiens, UniProt Q9H2K8) | 99% |
| Ribosomal protein S6 kinase beta-1 (RPS6KB1, Homo sapiens, UniProt P23443) | 64% |
| Mitogen-activated protein kinase kinase kinase 9 (MAP3K9, Homo sapiens, UniProt P80192) | 100% |
| RAC-gamma serine/threonine-protein kinase (AKT3, Homo sapiens, UniProt Q9Y243) | 100% |
| Fibroblast growth factor receptor 1 (FGFR1, Homo sapiens, UniProt P11362) | 49% |
| Tyrosine-protein kinase ABL1, phosphorylated (ABL1, Homo sapiens, UniProt P00519, H396P) | 80% |
| Cyclin-dependent kinase-like 2 (CDKL2, Homo sapiens, UniProt Q92772) | 100% |
| Epidermal growth factor receptor (EGFR, Homo sapiens, UniProt P00533, del746-750) | 97% |
| Phosphatidylinositol 4,5-bisphosphate 3-kinase catalytic subunit alpha isoform (PIK3CA, Homo sapiens, UniProt P42336, Q546K) | 76% |
| Tyrosine-protein kinase ABL1, non-phosphorylated (ABL1, Homo sapiens, UniProt P00519, T315I) | 57% |

Excerpt of the above (set 1):
| Sequence | log2 enrichment |
| --- | --- |
| UAACUUUAGAGGAGGAUCUGAUGGAUAUGGCAGUGGACGUGGAUUUGGGGAUGGCUAUAUUGGGUAUGGAGGAGGACCUGGAGGUGGCAA | -0.334 |
| CACAGACAACAAGCACCCACACAGACACAGAGGGAAGGGGUUGGGAUGGGGACAGGGUGCACAGCAGGGCGGGGUAGGACCCCAGCCCCU | 0.141 |
| AGUCCUGUGCUACACAUCGUAUGUACCGAAUCGGGGAAAAGGAAAAGGGAAAAGGGGAAAGUAUUAUGUUACGCCGUUCGGAUCUGCACU | -0.176 |
| CACAGACAACACGCACCCACACAGACACAGAGGGAAGGGGUUGGGAAAAGGACAGGGUGCACAGCAGGGCGGGGUAGGACCCCAGCCCCU | -0.0348 |
| UGGAGCUGAAGAGCCAAGAGGCUCCGAGUCUGCAGCAGCAGCCAGACCAGUACCUGGAGCCCCAGUCCCACAAGGAGCUUGGAUGUGCGG | -0.371 |
| CACAGACAACACGCACCCACACAGACACCGAGGGAAGGGGUUGGGAUGGGGACAGGGUGCACAGCAGGGCGGGGUAGGACCCCAGCCCCU | 0.0779 |
